Results of several laboratories.
Numbered parts are unrelated; each lists some results of a single study. Values joined by “and” are separate records of one study, mostly repeats; a detail may differ.

Series 1 — species: human; matrix: microsomes or S9; tested at: 2 µM; time: 0.5 h
Compound	remaining compound [%]
O=C(Nc1ccc(F)cc1)Nc1cc2ccc(O)cc2s1	35.1
CC(C)(C)OC(=O)N1CCC(n2cc(-c3cnc(N)c(-c4nc5ccccc5o4)c3)c3ccccc32)CC1	45.7
CN(C)c1ccc2oc(-c3cc(-c4cnn(C5CCNCC5)c4)cnc3N)nc2c1	92.8
Cc1ccc(-c2ccc(-n3nc(C)c(S(=O)(=O)Nc4ccc5c(c4)OCCO5)c3C)nn2)cc1	43.9
CC(C)n1nccc1C1CC(=O)Nc2cccc3c2c1cn3Cc1ccccc1 (stereo not shown)	98.6
Cc1c(-c2cnn(C)c2C)nn(-c2ccc(Cl)cc2)c1-c1cnn(C)c1C	1.03
C=CCc1cc(CNc2ncnc3nn(C)cc23)cc(OC)c1OC	22
CCn1c(N)c(-c2nc3ccccc3[nH]2)c(=O)c2ccccc21	85.5
O=C(Cn1ccc2ccccc21)NCCn1ncccc1=O	> 100
CC(C)Cc1ccc(C(C)C(=O)NCCNC(=O)C2CCCNC2=O)cc1 (stereo not shown)	13.9

Series 2 — effect on: enzyme activity; action: inhibitor; tested at: 0.5 µM; relative to: control
Target: Ribosomal protein S6 kinase alpha-5 (RPS6KA5, Homo sapiens, UniProt O75582)
Sequence of UniProt O75582 (whole entry, looked up): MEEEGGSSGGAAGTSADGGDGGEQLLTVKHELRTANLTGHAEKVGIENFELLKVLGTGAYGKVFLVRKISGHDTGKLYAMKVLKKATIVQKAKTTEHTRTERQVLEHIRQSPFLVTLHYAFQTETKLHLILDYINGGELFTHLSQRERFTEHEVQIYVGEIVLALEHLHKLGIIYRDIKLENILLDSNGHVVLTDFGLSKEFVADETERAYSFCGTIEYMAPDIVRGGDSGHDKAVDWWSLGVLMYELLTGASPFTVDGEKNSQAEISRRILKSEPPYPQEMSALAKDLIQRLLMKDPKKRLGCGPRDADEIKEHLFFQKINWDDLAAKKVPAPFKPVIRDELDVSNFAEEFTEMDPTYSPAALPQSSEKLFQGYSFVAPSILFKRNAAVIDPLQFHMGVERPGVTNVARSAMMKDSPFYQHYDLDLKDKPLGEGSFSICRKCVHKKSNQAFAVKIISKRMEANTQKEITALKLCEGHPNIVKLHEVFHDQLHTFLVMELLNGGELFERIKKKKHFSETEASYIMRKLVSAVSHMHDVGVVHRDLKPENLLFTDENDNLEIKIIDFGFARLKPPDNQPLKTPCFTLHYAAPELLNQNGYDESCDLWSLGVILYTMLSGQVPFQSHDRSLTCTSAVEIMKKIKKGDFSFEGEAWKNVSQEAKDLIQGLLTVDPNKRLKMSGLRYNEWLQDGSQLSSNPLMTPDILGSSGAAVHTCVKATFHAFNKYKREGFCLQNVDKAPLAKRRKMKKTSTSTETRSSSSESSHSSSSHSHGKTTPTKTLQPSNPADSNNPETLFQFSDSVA
Structure (SMILES)	remaining activity [%]
CCN(CC)CCNC(=O)c1c(C)[nH]c(/C=C2\C(=O)Nc3ccc(Cl)cc32)c1C	59
N#Cc1c(NC(=O)c2cccc3ccccc23)sc2c1CCCC2	99.6
c1ccc(-c2[nH]ncc2-c2ccnc3ccccc23)nc1	102
O=C(NC(NC(=S)Nc1ccc(F)c([N+](=O)[O-])c1)C(Cl)(Cl)Cl)C(c1ccccc1)c1ccccc1 (stereo not shown)	113
N#C/C(=C\c1ccc(O)c(O)c1)C(=O)NCc1ccccc1	102
CN([C@@H](Cc1ccc(OS(=O)(=O)c2cccc3cnccc23)cc1)C(=O)N1CCN(c2ccccc2)CC1)S(=O)(=O)c1cccc2cnccc12	100
Cc1nc2cc3nc(-c4cccs4)cnc3cc2n1C	109
O=C(Nc1cccc(Nc2nccc(Nc3cccc(C(F)(F)F)c3)n2)c1)C1CC1	101
Cc1cc2ncc(-c3ccccc3)nc2cc1C	96.4
CCN(CC)C(=O)c1ccc(Nc2nc(OCC3CCCCC3)c3[nH]cnc3n2)cc1	89.8
Nc1cccc(-c2cc3c(Oc4cccc(O)c4)ncnc3[nH]2)c1	83.6
COc1cc2ncnc(Nc3ccc(O)c(Br)c3)c2cc1OC	93.4
COc1cc2ncnc(Nc3cccc(Cl)c3)c2cc1OC	97.8
c1ccc(-c2cnc(Nc3ccc(OCCN4CCCC4)cc3)s2)cc1	104
Cn1nc2c3c(cccc31)C(=O)c1ccccc1-2	100
COc1cc2c(cc1OC)-c1[nH]nc(Nc3cccc(F)c3)c1C2	96
O=C1c2ccccc2-c2n[nH]c3cccc1c23	79.5
O=c1cc(-c2cccc3c2Sc2ccccc2S3)oc(N2CCOCC2)c1	117
CN(C)C[C@H]1CCn2c(c(C3=C(c4cn(C)c5ccccc45)C(=O)NC3=O)c3ccccc32)C1	24.8
Ic1cccc(CSc2nnc(-c3ccncc3)o2)c1	97.2
CCOc1nc(NC(=O)Cc2cc(OC)ccc2OC)cc(N)c1C#N	101
Cc1cn(-c2cc(NC(=O)c3ccc(C)c(Nc4nccc(-c5cccnc5)n4)c3)cc(C(F)(F)F)c2)cn1	95.6

Series 3 — cell line: mouse MPNST tumor cells; technique: high-content immunofluorescence imaging; item: nuclear SOX9; tested at: 10 µM; time: 12 h; setting: mean of 2 replicates; relative to: DMSO control; reading: higher = more nuclear SOX9
SMILES	nuclear SOX9 intensity
O=C(NCCCCCCNC(=O)ON=C1CCCCC1)ON=C1CCCCC1	93.2 % of DMSO
COc1cc(Br)c(S(=O)(=O)Nc2ccc(Cl)c(OC3CCN(C)C3)c2)cc1OC (stereo not shown)	123 % of DMSO
COc1cccc([C@H](O)C2CCN(CCc3ccc(F)cc3)CC2)c1OC	134 % of DMSO
CCOC(=O)c1c(C)[nH]c2ccc3c(c12)CN1CCc2cc(OC)ccc2C1O3 (stereo not shown)	212 % of DMSO
O=C1C(=O)c2ccccc2C(O)=C1C1CCC(c2ccc(Cl)cc2)CC1 (stereo not shown)	101 % of DMSO and 95.8 % of DMSO
CCCc1nc2c(C)cc(-c3nc4ccccc4n3C)cc2n1Cc1ccc(-c2ccccc2C(=O)O)cc1	86.6 % of DMSO and 90.7 % of DMSO
COc1cc2nc(N3CCN(C(=O)C4COc5ccccc5O4)CC3)nc(N)c2cc1OC (stereo not shown)	169 % of DMSO
O=C(Nc1cccc2c(=O)cc(-c3nn[nH]n3)oc12)c1ccc(OCCCCc2ccccc2)cc1	106 % of DMSO

Series 4 — cell line: normal organoid sample H; technique: CellTiter-Glo; species: human; tested at: 1 µM; time: 4 days; relative to: DMSO
Compound	viability
O=C(NCc1ncc(C(F)(F)F)cc1Cl)c1ccc2c(c1)C1(CCS(=O)(=O)CC1)[C@@H](C1CC1)N2S(=O)(=O)c1ccc(F)cc1	126% and 99.4%
C[C@H](NC(=O)c1cnc2n1[C@](C)(Cc1ccc(C#N)cc1)C(=O)N2c1cc(Cl)c(F)c(Cl)c1)C(=O)NC1(c2ccccn2)CC1	106%
C[C@H](c1ccnc(Nc2nc3ccc(-c4cc(N(C)C)ncn4)cc3[nH]2)c1)N1CCN(C(=O)CC(F)(F)F)CC1	102% and 97.1%
C[C@H](c1ccc(F)cc1)N(Cc1cccc(C(=O)O)c1)C(=O)c1cnc2ccccc2c1	116% and 91.8%
NS(=O)(=O)c1cc(NC(=O)Cc2ccccc2)ccc1Oc1cccc(Cl)c1	117% and 133%
O=C(Nc1cccnn1)N1CCC(=Cc2cccc(Oc3ccc(C(F)(F)F)cn3)c2)CC1	130% and 107%
Cc1c(NC(=O)c2cc(C(N)=O)nc3cc(F)ccc23)c(C(F)(F)F)nn1Cc1ccc(C#N)cc1	10.1% and 9.3%
CN(c1ccnc(CNc2nc(Nc3ccc4c(c3)CC(=O)N4)ncc2C(F)(F)F)n1)S(C)(=O)=O	113% and 124%
C[C@H](c1ccc(F)cc1)N(Cc1ccc(Cl)c(C(=O)O)c1)C(=O)c1cnc2ccccc2c1	97.8% and 98.7%
NS(=O)(=O)c1cc(NC(=O)C2(c3ccccc3Cl)CC2)ccc1Oc1cccc(Cl)c1	95.4% and 82.6%
O=C(O)[C@@H]1[C@@H](Cn2nnc3ccccc3c2=O)CC[C@H]1C(=O)c1ccc(OCCC2CCOCC2)cc1	146% and 91.7%
CCCCN(CCCC)C(=O)CN1C[C@@H](c2cc(OC)c3c(c2)OCO3)[C@H](C(=O)O)[C@H]1CC(C)(C)CCC	104% and 101%
